Results collected from several papers.
Every numbered part comes from another study and shows a few of its results, in no order.

Sample 1
Target: Sal-like protein 4, full length isoform B (SALL4, Homo sapiens, UniProt Q9UJQ4-2, residues 1-616)
Technique: universal PBM
Form: double-stranded DNA, one strand shown
Medium: in vitro
Tested at: not given
Setting: 8-mer, flanks averaged, mean of replicates
Direction: higher = stronger binding
Sequence	E-score
CGAACGAG	-0.0879
CATGGTTC	-0.109
AGAACGGG	-0.0752
AAGGTCTG	-0.026
GTTCGGGA	-0.203
CTAATGAG	-0.0383
CCGAGAAC	-0.153
ACATAACC	0.161
ACACACTC	0.107
GCTGGGAC	-0.306
CTAAAAGC	-0.224
AACAATAG	0.201
CAAGGAGA	-0.0424
AACTGACC	-0.0582
ACCTTTGC	0.0648
AGACGCCA	-0.093
ACACTGTA	0.111
AACCAGAT	-0.00283
GGTGAACC	-0.217
CGATAAGC	-0.136
AGATGGGA	0.00343
GTGCAAGA	0.00087
CAACTCTA	-0.0118
AGCGTGAG	-0.124
AGACGGTG	-0.224

Sample 2
Target: Cyclic AMP-responsive element-binding protein 1, full length (CREB1, Homo sapiens, UniProt P16220, residues 1-327)
Chain of UniProt P16220 (whole entry, looked up): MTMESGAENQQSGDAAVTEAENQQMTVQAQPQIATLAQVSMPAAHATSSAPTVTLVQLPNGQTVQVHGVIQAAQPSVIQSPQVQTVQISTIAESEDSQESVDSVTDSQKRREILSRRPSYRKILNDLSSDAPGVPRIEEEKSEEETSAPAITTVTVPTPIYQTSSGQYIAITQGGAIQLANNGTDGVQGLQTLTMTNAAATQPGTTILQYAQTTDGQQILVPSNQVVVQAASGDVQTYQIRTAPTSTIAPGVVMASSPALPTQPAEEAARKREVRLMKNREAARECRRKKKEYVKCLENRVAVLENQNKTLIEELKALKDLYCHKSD
Technique: protein-binding microarray
Form: hairpin DNA
Medium: in vitro
Tested at: not given
Setting: whole hairpin DNA, median over replicate spots
Baseline: not given
Direction: higher = stronger binding
Sequence	median fluorescence
GAGGCCGGCCGACGTCAGCCTCCTGGCTGACGTCGGCCGGCCTCACACTC (5mC at 10 34)	4820 a.u.
GAGGCCGGATGACGTTAGCCTCCTGGCTAACGTCATCCGGCCTCACACTC	8200 a.u.
GAGGCCGGCTGACGGCAGCCTCCTGGCTGCCGTCAGCCGGCCTCACACTC (5mC at 30)	3180 a.u.
GAGGCCGGCTGACGTCGGCCTCCTGGCCGACGTCAGCCGGCCTCACACTC (5mC at 16 28)	5210 a.u.
GAGGCCGGATGAGGTCAGCCTCCTGGCTGACCTCATCCGGCCTCACACTC (5mC at 32)	2670 a.u.
GAGGCCGGATGCCGTCAGCCTCCTGGCTGACGGCATCCGGCCTCACACTC (5mC at 12)	3060 a.u.
GAGGCCGGATAACGTCAGCCTCCTGGCTGACGTTATCCGGCCTCACACTC	4330 a.u.
GAGGCCGGATGACGCGAGCCTCCTGGCTCGCGTCATCCGGCCTCACACTC (5mC at 29)	6230 a.u.
GAGGCCGGATGACGTGAGCCTCCTGGCTCACGTCATCCGGCCTCACACTC (5mC at 29)	10300 a.u.
GAGGCCGGATGACCGCAGCCTCCTGGCTGCGGTCATCCGGCCTCACACTC (5mC at 30)	3040 a.u.
GAGGCCGACGACGTCCGGCCTCCTGGCCGGACGTCGTCGGCCTCACACTC (5mC at 9 15 28 35)	3190 a.u.
GAGGCCAGCTGACGTCAGCCTCCTGGCTGACGTCAGCTGGCCTCACACTC	12700 a.u.
GAGGCCGGATGACCGCAGCCTCCTGGCTGCGGTCATCCGGCCTCACACTC (5mC at 14 30)	2850 a.u.
GAGGCCGAGGACGTCGTGCCTCCTGGCACGACGTCCTCGGCCTCACACTC (5mC at 15 29 35 36)	3110 a.u.
GAGGCCGACGACGTCCGGCCTCCTGGCCGGACGTCGTCGGCCTCACACTC (5mC at 9 15 16 35)	2890 a.u.
GAGGCCGACGACGTCTTGCCTCCTGGCAAGACGTCGTCGGCCTCACACTC (5mC at 9 15 35)	3100 a.u.
GAGGCCGGATGACGTCAGCCTCCTGGCTGACGTCATCCGGCCTCACACTC (5mC at 38)	22900 a.u.

Sample 3
Target: RNA binding protein fox-1 homolog 2, RRM domain, GST-SBP tag (RBFOX2, Homo sapiens, UniProt O43251-10, residues 100-194)
Technique: RNA Bind-n-Seq
Form: RNA
Medium: in vitro
Tested at: 365 nM
Setting: natural RNA segment, single round, ends assumed
Baseline: no-protein control
Direction: higher = stronger binding
Shared flanks, not repeated: GGGAGUUCUACAGUCCGACGAUC … UGGAAUUCUCGGGUGCCAA
Construct (chain): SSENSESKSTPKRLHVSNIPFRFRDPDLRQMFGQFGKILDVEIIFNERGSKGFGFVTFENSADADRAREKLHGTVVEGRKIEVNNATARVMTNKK
Sequence	RBNS enrichment (R)
UACAUAAAGCUAUGGUUUAAUAGCUGUAUUUAUUAAAGUACCUAUGAAGGGUUUGGGGUAGCAUUCUGUUUUUUCUUUGCUUUUUCAUUUCUAGCAGAGGCAAGAAUACA	0.528
AAGGGAGGAUCUUCUUCAGUUGUAGUUUGGAAGGUUCCUUGGUGUGGCUCAUGAAAUCACAGAGCUCAGAGAUACCAUCUUGAGAAAUCCUCCUUGGUAUCAUGAAACUG	0.839
UGGCUCUCAGCAGCUUCCCUGCAGCGCCACUGGGCUAAGGGGGAGCGGCCAUUUAUGUUCAUGUUCACAGGAAGGUCUUCUGCUGCUCCAUCCUAGACCUGCCCCAGUGC	0.378
CUGUGACAAUCAGCAAAGCCUCGCCUGGGCCCUCAUCUGGGAUGAUGGGGGGAACGGACAGAUAUUCCCAUCUUGGAGGUCAUCCAUUAGGAAUUAAAUUCUCCAGCUUC	0.264
CCAGCUGAGGUUUUUCCUCUGUCUCUCUAGGAAUAGGGUCUGUUUCACAGGCCAUUUCUGUGAACCCUACUCCAUUGUGGUUUCUGCCACUAUCAAAGUUCCAGCUACCU	0.216
UCUGGGGAAGAAAAGUUAAUGAGGUUUUAAAAAUCAGGUCUUGUCGUGUGGGGAGCUUGCUCCCCCAGGGGAGAGGCCCCUUUACCUCAGUGGAUCCUGUUAAGGAGUGC	0.279
CACAGAUGGUCGCUGCAAGCAGAUCCCUCUGAGCCUCUCUUCUGCUAGUGCCUGGCUUGCCACAUGGAAAGCAAGCACAAGGGAGCAGUAUUCCGUAGCAUAUGAUAGCA	0.976
CCUGGGCAGGGUCUGUGGCUGCGCCCCUCAGGCCAGCAGUUGAGGUCCAUCGGGCUGGCCCCAGCCCAUCUGCUGGCAUCAGUACCUGGUGUUGGGACAGCAGGAUAGGG	0.43
CAAGCUCAUACAGGGAACCACACCCAACACUUAGACAUGCGAACAAGCAGCCCCCAGCGAGGGUCUCCUUCGCCUUCAACCUCCUAGUGUCUGUUAGCAUCUUCCUUUUC	0.439
GAACUUUGGUAGUGAGUAUUUUUUUUAUAUAUAUACAUAUAUAUGUACUAUCUAUAUAUAUAUCUCAAGCAUCUUUCAGGUCUUUGUGUGUGGCUUUCUUAAAGCCCUGU	0.765
UUUUUUUUUAAAGUGUGGUCCUGUGCUUUCAAAGUAAGUACAGUUCUCUAUGACCAGGCACUUAAACAUAAUUUAAAAGUCCUUGUAGCUUCAGAACCGGAUAAGUUCCA	0.319
GACUACAGGCACACACCAGUACCACUCAGUCUUGUGCAGUGCUGGGGAUGAGCCCAGGGUUUCAUGCAUGCCAGCAAACAUUCUACUAUCUGAGCAAUGUCCCCAGUGUC	2.05

Sample 4
Target: Centromere-binding protein 1, full length, N-terminal tag (CBF1, Saccharomyces cerevisiae, UniProt P17106, residues 1-351)
Chain of UniProt P17106 (whole entry, looked up): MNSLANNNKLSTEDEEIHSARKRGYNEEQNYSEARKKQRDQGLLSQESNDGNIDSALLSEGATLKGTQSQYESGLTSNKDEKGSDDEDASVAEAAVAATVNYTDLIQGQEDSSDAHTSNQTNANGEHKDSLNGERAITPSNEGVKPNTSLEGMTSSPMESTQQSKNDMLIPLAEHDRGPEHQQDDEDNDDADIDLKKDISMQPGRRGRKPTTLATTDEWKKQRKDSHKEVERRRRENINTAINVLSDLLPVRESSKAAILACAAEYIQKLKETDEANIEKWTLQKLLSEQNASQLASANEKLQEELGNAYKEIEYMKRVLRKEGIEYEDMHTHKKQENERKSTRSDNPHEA
Technique: protein-binding microarray
Form: double-stranded DNA, one strand shown
Medium: in vitro
Tested at: 0.8 µM
Setting: whole 60-bp probe, no competitor
Direction: higher = stronger binding
Shared flanks, not repeated: … GTCTTGATTCGCTTGACGCTGCTG
Sequence	fluorescence intensity [a.u.]
CTATAGTAAAATGATGGTGTGGAAGACATAGATTTC	517
CTAATAATGTCTTACCACCACACCCACACACATTTC	555
CTAAAGTTACTCCATCATCTGACACCTAGAGACTTC	725
CTAGATAATGTCTCACTCGTGCAGTCACATCTCTTC	571
TGTACGAAGCTATGGAACGTGACTATAGTAGTTAGG	2150
CTATGATGAGGCGGAAACGTGCAAGATCCTAAATTC	610
CTAATTTCTATAAGCCACCAGATATCAATAAAATTC	535
GAAATGATCCTGGTTCATGATCAGTACTATGATTAG	512
CTAACTTTTGAAGAGCACATGTAATATTTGCTCTTC	751
GAATCGCCGTTACCCCACGAATCACTTATAACGTAG	515
CTAGAGCACTACCATGACGTCATTAACGTAAAATTC	511
CTAAAGCTAATCGTGCACGTAAACAACAATCTATTC	532
CTACGCTGCCCAATCCACGTGGAAAAATCCTGTTTC	2210
CTATCCGTAATTAGCCACGAGGCCAGAAAGGAATTC	660
GAATTTTATTATGCACGTGTGATAGCATTATCTTAG	9350
CCTAACTACTATATACACGATGAATAGCTTCGTACA	562
CTAACTATGACGCGTCACGAATTGTGCTAGAGTTTC	535
TGTACGAAGCTATTTCATGCACGTATAGTAGTTAGG	534
TGTACGAAGCTATTCACCGTGCCTATAGTAGTTAGG	541
GAAGGCTTTTTCTATAACGTGTATTATGAAAAATAG	681
GAATATTATGGTGAGCAGGTGAAATCCTAGCTGTAG	542
GAATAGAAAGTGACATATCACATGTATGGTAGTTAG	1550
GAAACTTCTAGGTCCAATGTGACCATTTTGCAGTAG	639
GAATTATTCAAGTCTCATCATATGAAATTTCTTTAG	480
TGTACGAAGCTATGACTAGTCACTATAGTAGTTAGG	529
